Published values from different studies.
Several values in a cell are separate wells, animals, samples, runs or records. ± gives the spread as reported. ≈ marks a conversion by molar mass, not a printed value.
CDK2 with cyclin A: Cyclin-dependent kinase 2, with cyclin A (CDK2, Homo sapiens, UniProt P24941)

SMILES	target or system	assay	test system	conditions	how to read	endpoint	value
c1csc(CNc2cc[nH]n2)c1	human peripheral blood lymphocytes (female)			1130 µg/mL, 4 h, initial, added: with S9		cells with numerical aberrations	0%
CCOc1c([C@H](C)n2nc(C)c3c(N)ncnc32)cc(Cl)c(F)c1[C@@H]1CNC(=O)C1			rat plasma	5 ng/mL, 3 h, room temperature	relative to: nominal concentration	stability relative error	8.1%
C=CCN1CC(=O)N2[C@@H](Cc3ccc(O)cc3F)C(=O)N(Cc3cccc(N4CC(N5CCN(CC)CC5)C4)n3)C[C@@H]2N1C(=O)NCc1ccccc1			advanced solid tumour patients	oral, 160 mg twice daily, any grade, dose-escalation		treatment-related diarrhoea	50%
CS(=O)(=O)c1ccc([C@@H](O)[C@@H](CF)NC(=O)C(Cl)Cl)cc1			Arbor Acres chickens, plasma	oral, 20 mg/kg, added: quercetin 40 mg/kg pretreatment		terminal half-life	2.33 ± 0.28 h
CCn1cc(C(=O)N2CCOCC2)c(=O)c2cc(NC3Cc4ccccc4C3)cnc21			human, fasted	oral suspension, 2000 mg single dose, arithmetic mean		half-life	16.7 h
CC(C)C[C@H](NC(=O)C[C@H](O)[C@H](CC(C)C)NC(=O)[C@H](Cc1c[nH]cn1)NC(=O)CNC(=O)[C@@H](NC(=O)[C@H](C)NC(=O)[C@H](Cc1c[nH]c2ccccc12)NC(=O)[C@H](CCC(N)=O)NC(=O)[C@@H](Cc1ccccc1)NC(=O)COCCOCCNC(=O)CCC(C(=O)O)N1CCN(CC(=O)O)CCN(CC(=O)O)CCN(CC(=O)O)CC1)C(C)C)C(N)=O (stereo partly shown) [lutetium-177 labelled]			BALB/c nu/nu mice, stomach	intravenous, 100 pmol, 1 h, added: PA 300 µg		tissue uptake	2.1 ± 0.4 %ID/g
C[C@H](CCC(=O)O)[C@H]1CC[C@H]2[C@@H]3[C@H](O)C[C@@H]4C[C@H](O)CC[C@]4(C)[C@H]3CC[C@]12C			human, plasma	endogenous control diurnal	relative to: daily mean concentration	relative peak deviation	155 ± 28%
C[C@@H](NC(=O)N1C(=O)[C@H](Cc2ccnc(N)c2)[C@H]1C(=O)O)C1CCCCC1		UPLC-MS/MS	healthy adult Chinese volunteers, plasma	continuous intravenous infusion, 1.5 mg/kg/h, day 6 of 5-day infusion, mean		elimination rate constant	0.000138 s⁻¹
O=C(Cc1ccc2ccccc2c1)Nc1cc(C2CCC2)[nH]n1			mouse plasma	375 ng/mL, -80 °C, freeze-thaw stability, added: 3 freeze-thaw cycles		measured mean concentration	375.7 ± 0.3 ng/mL
CNC(=O)c1ccc(-c2cnc3ncc(Cc4ccc5ncccc5c4)n3n2)cc1F			Japanese patients	oral, 400 mg, any grade		blood bilirubin increased dose reduction/interruption	1%
CCn1c(C(=O)N(C2CC2)C2CC2)cc2c3c(ncn3C)c(Nc3cc(C)n(C)n3)nc21			cancer patients	oral, 200 mg twice daily, day 15, 344.0 h		plasma concentration	5890 ng/mL
C[C@@]1(c2cc(NC(=O)c3ccc(C#N)cn3)ccc2F)C=CSC(N)=N1			elderly humans, both sexes, plasma	oral, 90 mg single dose		dose-normalised AUC(0-inf)	99.4 ng·h/mL
Cc1ccc([C@@H]2O[C@H](CO)[C@@H](O)[C@H](O)[C@H]2O)cc1Cc1ccc(-c2ccc(F)cc2)s1			Japanese type 2 diabetes patients	400 mg, day 5, 24 h urine collection	relative to: baseline	urinary sodium excretion change	2.65 mEq
CC(C)[C@H](C(=O)Nc1ccc(C(=O)NO)cc1)c1ccccc1			whole blood	1000 ng/mL, 3 h, 4 °C, stability on ice		measured concentration	1060 ng/mL
Cc1nc(-c2ccc(OCC(C)C)c(C#N)c2)sc1C(=O)O			KM mouse, chronic hyperuricaemia model	dose not given, day 18		body weight	32.8 g and 33 g and 37.2 g and 38 g and 41.2 g and 34.6 g
N#Cc1ccc(C(c2ccc(C#N)cc2)n2cncn2)cc1			human patients, tumour tissue at surgery	12.5 mg daily		tumour concentration	151 ± 13.4 ng/g
NC(=O)c1cnc2[nH]ccc2c1N[C@@H]1[C@@H]2CC3C[C@H]1C[C@@](O)(C3)C2		CD8+ CD28+ naive T cells, flow cytometry	Caucasian humans, peripheral blood	20 mg single dose	relative to: baseline	percent change	-0.5%
Cn1cc(-c2ccc(-c3cncc(Cl)c3N3CCC4(CCNC4=O)CC3)cc2)cn1	COLO 205	gene expression, microarray, item: CTSV mRNA		concentration not given, 2 h	relative to: untreated cells	log2 fold change	-2.11
C[C@@H]1CCO[C@H]2Cn3cc(C(=O)NCc4ccc(F)cc4F)c(=O)c(O)c3C(=O)N12			human, body weight 25 to <30 kg, plasma	oral, 50 mg, film-coated tablet, steady state		Cmax	5210 ng/mL
O=C1CC[C@H](N2Cc3cc(N4CCN(CC5CCN(c6ccc([C@@H]7c8ccc(O)cc8CC[C@@H]7c7ccccc7)cc6)CC5)CC4)ccc3C2=O)C(=O)N1		rapid equilibrium dialysis	SD rat hepatocytes	2.5 µM, 6 h		unbound fraction in hepatocytes	0.14
CC(C)CCC[C@@H](C)[C@H]1CC[C@H]2[C@@H]3C(O)CC4=CC(=O)CC[C@]4(C)[C@H]3CC[C@]12C (stereo partly shown)			human, plasma	endogenous control diurnal	relative to: daily mean concentration	relative peak deviation	58.7 ± 11.1%
Cc1cccc(CNC(=O)c2cn(CCNC(=O)c3ccccc3Sc3c([N+](=O)[O-])ncn3C)c3cc4c(cc3c2=O)OC(F)(F)O4)n1			Sprague-Dawley rat, male, whole blood	intramuscular, 3 mg/kg of parent drug		half-life	2.31 h
CCc1cc(C(=O)NC)c2nccc(N3CCc4c(cc(Cn5ccnc5)cc4-c4cn(C)nc4C(F)(F)F)C3=O)c2c1			Sprague Dawley rats	oral, 50 mg/kg once daily, 7 days		mean platelet volume	8.15 ± 0.13 fL

SMILES	target or system	assay	test system	conditions	how to read	endpoint	value
NCCOCC(=O)N1CCC[C@H](C(=O)NCc2nc(-c3ccc(C(F)(F)F)cc3)cs2)C1			Sprague-Dawley rat, male, plasma	oral, 3 mg/kg		unbound AUC	0.01 µM·h
CO[C@H]1C[C@@H]2CC[C@@H](C)[C@@](O)(O2)C(=O)C(=O)N2CCCC[C@H]2C(=O)O[C@H]([C@H](C)C[C@@H]2CC[C@@H](OC(=O)NCCOCCOCCOCCOCCOCCOCCOCCOCCC(=O)N3CCc4cc(Cn5nc(-c6ccc7oc(N)nc7c6)c6c(N)ncnc65)ccc4C3)[C@H](OC)C2)C[C@@H](O)[C@H](C)/C=C(\C)[C@@H](O)[C@@H](OC)C(=O)[C@H](C)C[C@H](C)/C=C/C=C/C=C/1C			human, plasma	intravenous, 16 mg, cycle 1 day 1, arithmetic mean		Tmax	1 h
COc1ccc2c(c1)CN(C(=O)CCN1CCC(Cc3ccccc3)CC1)CC[S@@+]2[O-]		telemetry	conscious male beagle dogs	intravenous, 2 mg/kg, 24 h		systolic blood pressure	140 ± 14 mmHg
Cc1nc(-c2ccc(OCC(C)C)c(C#N)c2)sc1C(=O)O			human, plasma	oral, 20 mg, added: verinurad 5 mg	relative to: test over reference	geometric mean ratio AUC(0-24)	92.6
COc1ncc(-c2nc3c(n2C(C)C)[C@H](c2ccc(Cl)cc2)N(c2cc(Cl)cn(C)c2=O)C3=O)c(OC)n1			human patients, plasma	oral, 25 mg, high-dose arm, cycle 1 day 1		median half-life	31.1 h
NC[C@@H]1O[C@H](O[C@H]2[C@@H](O)[C@H](O[C@@H]3[C@@H](O)[C@H](N)C[C@H](N)[C@H]3O[C@H]3O[C@H](CO)[C@@H](O)[C@H](O)[C@H]3N)O[C@@H]2CO)[C@H](N)[C@@H](O)[C@@H]1O			NSG mice	dose not given, day 4 of treatment		body weight	20.7 g and 23.4 g and 23.3 g and 25.3 g and 23.6 g and 21 g and 22.7 g
O=[N+]([O-])c1cn2c(n1)OC[C@@H](OCc1ccc(N3CCOCC3)nc1)C2			aqueous buffer	pH 7.4		aqueous solubility	25.8 µg/mL (≈ 71.4 µM)
CN(C(=O)C(C)(C)c1cc(C(F)(F)F)cc(C(F)(F)F)c1)c1cnc(N2C[C@H]3COCCN3C[C@H]2CO)cc1-c1ccc(F)cc1[14CH3]			healthy men, feces including toilet tissue	oral, 120 mg, 480 h	relative to: dose	radioactivity excreted	90.4%
CC(C)NCCCC[C@@H]1NC(=O)[C@H](Cc2ccc(O)cc2)NC(=O)[C@H](Cc2ccccc2)NC(=O)CC[C@H](C(=O)N[C@@H](CCCCNC(C)C)C(=O)N[C@@H](CCCCNC(=O)[C@H](CCC(=O)O)NC(=O)[C@H](CCC(=O)O)NC(=O)[C@H](CCC(=O)O)NC(=O)CN2CCN(CC(=O)O)CCN(CC(=O)O)CCN(CC(=O)O)CC2)C(N)=O)NC(=O)CNC(=O)[C@H](Cc2ccc3ccccc3c2)NC(=O)[C@@H](CCCNC(=N)N)NC1=O [gallium-68 labelled]			mouse with PC-3 xenograft, heart	intravenous, 1 h		tissue uptake	0.2 %ID/g
CC(=O)Nc1ccc(S(=O)(=O)Nc2c(C)nn(-c3ccccc3)c2C)cc1	CDK2 with cyclin A					Kd	> 100 µM
O=C(Nc1nc2cccc(-c3ccc(CN4CCS(=O)(=O)CC4)cc3)n2n1)C1CC1		item: animal bite	human rheumatoid arthritis patients	oral, 30 mg once daily, 4 weeks, regardless of relatedness		treatment-emergent adverse events	0%
CO[C@H]1C[C@@H]2CC[C@@H](C)[C@@](O)(O2)C(=O)C(=O)N2CCCC[C@H]2C(=O)O[C@H]([C@H](C)C[C@@H]2CC[C@@H](O)[C@H](OC)C2)CC(=O)[C@H](C)/C=C(\C)[C@@H](O)[C@@H](OC)C(=O)[C@H](C)C[C@H](C)/C=C/C=C/C=C/1C			healthy adult horses	intravenous, 0.06 mg/kg, 72 h		rectal temperature	37.2 ± 0.3 °C
N#Cc1ccc2c(c1)[C@H]1CCCN(C(=O)c3ccc4[nH]cnc4c3)[C@H]1C2			human	360 mg, day 7		maximum ACTH level	10.2 pmol/L
FC(F)(F)c1ccc(CNc2ccc(Cc3c[nH]c4ncc(Cl)cc34)cn2)cn1		item: neutropenia	patients with advanced solid tumours	oral, dose not given, phase Ib, related to compound		adverse events, all grades	26%
C=CC(=O)NC1CCN(c2ncc3ncnc(Nc4ccc(Oc5ccc6c(c5)ncn6C)c(C)c4)c3n2)CC1			human, male	oral, 240 mg, treatment-emergent adverse event		participants with grade 2 myalgia	6.3%
Cc1cc(-c2nnc(N)nc2-c2ccc(F)cc2)cc(Cl)n1		item: Nausea	human phase Ia/Ib mCRPC, immunotherapy-naive	oral, dose not given		patients with treatment-related adverse events	69.2%
CC[C@H](C)C(=O)O[C@H]1C[C@@H](C)C=C2C=C[C@H](C)[C@H](CC[C@@H]3C[C@@H](O)CC(=O)O3)[C@H]21			dog, Beagle, both sexes, whole blood	5 µM, 120 min		remaining compound	59.6%
CC(C)=CC[C@@H](O)C1=CC(=O)c2c(O)ccc(O)c2C1=O			plasma	500 ng/mL, 4 h, room temperature, stability		measured concentration	486 ± 10.6 ng/mL
CNCc1ccc(-c2[nH]c3cc(F)cc4c3c2CCNC4=O)cc1			human patients	oral, 600 mg twice daily, grade 2		dizziness incidence	3.8%
CNC(=O)c1ccc(-c2cnc3ncc(Cc4ccc5ncccc5c4)n3n2)cc1F			healthy human subjects	oral, 400 mg, Headache, grade 3, all causality, added: rifampicin 600 mg/day		subjects with adverse event	0%
COc1cc([N+](=O)[O-])ccc1NC(=O)CN1CCOCC1	CDK2 with cyclin A					Kd	> 100 µM
CC(C)Oc1c(NC(=O)c2ccc(NC(=O)[C@H](CC(N)=O)NC(=O)c3ccc(NC(=O)c4ccc(C#N)cc4)cc3)cc2)ccc(C(=O)Nc2ccc(C(=O)O)cc2)c1O	Escherichia coli ATCC 25922		neutropenic male CD-1 mice, muscle	iv then sc, 37.5 mg/kg/day, 24 h after infection, thigh infection model		concentration	100 ± 3.2 ng/mL
C[C@@H](Oc1ccc(S(C)(=O)=O)cc1C(=O)N1C[C@@H]2C[C@]2(c2cc(C(F)(F)F)on2)C1)C(F)(F)F		LC-MS/MS	elderly human subjects, plasma	oral, 50 mg once daily, steady state, multiple doses		Vz/F	415 L

Repeated from above:
SMILES	target or system	assay	test system	conditions	how to read	endpoint	value
O=C(Nc1nc2cccc(-c3ccc(CN4CCS(=O)(=O)CC4)cc3)n2n1)C1CC1		item: animal bite	human rheumatoid arthritis patients	oral, 30 mg once daily, 4 weeks, regardless of relatedness		treatment-emergent adverse events	0%
COc1cc([N+](=O)[O-])ccc1NC(=O)CN1CCOCC1	CDK2 with cyclin A					Kd	> 100 µM
C[C@@H](NC(=O)N1C(=O)[C@H](Cc2ccnc(N)c2)[C@H]1C(=O)O)C1CCCCC1		UPLC-MS/MS	healthy adult Chinese volunteers, plasma	continuous intravenous infusion, 1.5 mg/kg/h, day 6 of 5-day infusion, mean		elimination rate constant	0.000138 s⁻¹
